Results collected from several papers.
Compare with care: the assays were run in different laboratories. ± marks the error that the study gave.

O=C(c1cc(Cc2n[nH]c(=O)c3ccccc23)ccc1F)N1CCN(C(=O)C2CC2)CC1  colony survival (MDA-MB-436 BRCA1-mutant; colony formation; 20 nM; baseline: vehicle (DMSO)): 48.7%
C=CC(=O)Nc1cc(-n2c(=O)ccc3cnc4ccc(-c5ccc(NS(C)(=O)=O)cc5)cc4c32)ccc1C  inhibition (THP-1; pyroptotic LDH release; 2 µM, 40 min, together with: LPS then nigericin): 18.2%
c1ccc2[nH]ccc2c1  mRNA level, LS mean (HCT-8; RNA-seq, item: CAPN5; concentration not given): 64 counts per million
Cc1ccc(NC(=O)C2(c3ccc4c(c3)OC(F)(F)O4)CC2)nc1-c1cccc(C(=O)O)c1  CFTR activity increase (CFBE41o- ΔF508-CFTR; SPQ chloride transport; 20 µM): ≤ 27%
O=C(O)/C=C/c1ccc(O)c(O)c1  kynurenine level (Caco-2/THP-1 co-culture; 0.05 µg/mL, together with: LPS 50 ng/mL): 118 ± 3.7 % change
CO/N=C1\C[C@]2(C[C@@H]3C[C@@H](C/C=C(\C)C[C@@H](C)/C=C/C=C4\CO[C@@H]5[C@H](O)C(C)=C[C@@H](C(=O)O3)[C@]45O)O2)O[C@H](/C(C)=C/C(C)C)[C@H]1C  inhibition (THP-1; pyroptotic LDH release; 2 µM, 40 min, together with: LPS then nigericin): 9.85%
COc1cnc2cccc(N3CCc4c(cc(Cn5ccnc5C)cc4-c4cn(C)nc4C(F)(F)F)C3=O)c2c1  EC50 (OV7; cell growth, inhibitor; 120 h): > 30 µM
CCCCN1CCN(c2ccc3nc(-c4ccc5nc(-c6cc(OC)ccc6OC)[nH]c5c4)[nH]c3c2)CC1  growth percent (RXF 393; SRB; 10 µM, 48 h): 82.6%
COc1cc(-c2oc3cc(O)cc(O)c3c(=O)c2O)ccc1O  kynurenine level (Caco-2/THP-1 co-culture; concentration not given, together with: LPS 50 ng/mL): 113 ± 2.3 % change
CC(C)C[C@H](NC(=O)CNC(=O)c1cc(Cl)ccc1Cl)B1OC(=O)C(CC(=O)O)(CC(=O)O)O1  EC50 (HEK293T ATF4-FLuc reporter; ATF4 reporter gene, activator, luciferase reporter): 0.161 µM
O=C(Nc1nnc2[nH]c(=S)[nH]c(-c3ccc(Cl)cc3)c1-2)c1ccccc1  cell growth (RXF 393; SRB; 10 µM, NCI60 single-dose screen; baseline: untreated): 90.9%
COc1cccc2c1C(=O)c1c(O)c3c(c(O)c1C2=O)C[C@@](O)(C(=O)CO)C[C@@H]3O[C@H]1C[C@H](N)[C@H](O)[C@H](C)O1  point of departure (HepG2; oxidative stress, item: reactive oxygen species; 6 h, distribution mode 1): 0.00724 µM
O=C(/C=C/C=C/C=C/C1CCCCC1)NC1=C[C@@](O)(/C=C/C=C/C=C/C(=O)NC2=C(O)CCC2=O)[C@@H]2O[C@@H]2C1=O  GI50 (HCC38; cell growth, CellTiter-Glo; 78 h): 16.8 µM
Nc1nccc2c1ncn2[C@@H]1O[C@H](CO)[C@@H](O)[C@H]1O  inhibition (THP-1; pyroptotic LDH release; 2 µM, 40 min, together with: LPS then nigericin): 0.57%
CCOc1ccc(Cc2nccc3cc(OCC)c(OCC)cc23)cc1OCC  EC50 (HEK293T ATF4-FLuc reporter; ATF4 reporter gene, activator, luciferase reporter): 4.75 µM
CC(=O)Nc1cc(Oc2ccc3c(c2)CCN3C(=O)Nc2ccc(CN3CCN(C)CC3)c(C(F)(F)F)c2)ncn1  phosphorylation (MUTZ5 cells; Western blot, item: JAK2, STAT5, STAT3; concentration not given): inhibited
N[C@@H]1c2ccccc2C[C@@H]1O  inhibition (THP-1; pyroptotic LDH release; 2 µM, 40 min, together with: LPS then nigericin): 10.7%
CCN(C)C(=O)c1ccc2c(c1)NC(=O)/C2=C(/Nc1ccc(CN2CCCCC2)cc1)c1ccccc1  EC50 (HEK293T ATF4-FLuc reporter; ATF4 reporter gene, activator, luciferase reporter): 4.11 µM
CC1(C)CCC(C)(C)c2cc(NC(=O)c3ccc(C(=O)O)cc3)ccc21  inhibition (THP-1; pyroptotic LDH release; 2 µM, 40 min, together with: LPS then nigericin): 52%
Cn1cc(-c2ccc(-c3cncc(Cl)c3N3CCC4(CCNC4=O)CC3)cc2)cn1  fold change in expression (COLO 205; microarray, item: NRP1; concentration not given, 6 h, gene set Neuropilin-1; baseline: untreated cells): 2.74
COc1ccc2c(O[C@@H]3C[C@H]4C(=O)N[C@]5(C(=O)NS(=O)(=O)C6CC6)C[C@H]5/C=C\CCCCN(C)C(=O)[C@@H]4C3)cc(-c3nc(C(C)C)cs3)nc2c1C  inhibition (THP-1; pyroptotic LDH release; 2 µM, 40 min, together with: LPS then nigericin): 33.7%
CCn1cc(-c2cc(Cn3ccoc3=N)cc3c2CCN([C@@H](C)c2cc(OC)ccn2)C3=O)c(C(F)(F)F)n1  EC50 (NOMO-1; cell growth, inhibitor; 120 h): 0.156 µM
C=CC(=O)N1CCC(Oc2cc3c(Nc4ccc(Cl)c(Cl)c4F)ncnc3cc2OC)CC1  selectivity ratio (NCI-H2073 EGFR SVD knock-in; cell proliferation, CellTiter-Glo; baseline: knock-in over parental NCI-H2073): 0.045
CC(C)NCC(O)c1ccc(O)c(O)c1 (stereo not shown)  sarcomere length (mouse ventricular cardiomyocytes; dose not given, 0.235 s): 1.8 µm
Cn1cc(Nc2nccc(-c3ccc4c(c3)CN(C3COC3)CC[C@H]4NC(=O)c3cn(C(C)(C)C)nn3)n2)cn1  number of downregulated genes (human B cells; 100 nM, 64 h, non-stimulation-regulated genes, together with: CD40L, anti-IgM, IL-21): 159
O=C(/C=C/c1ccc(CN(CCO)CCc2c[nH]c3ccccc23)cc1)NO  EC50 (HEK293T ATF4-FLuc reporter; ATF4 reporter gene, activator, luciferase reporter): 0.186 µM
C[n+]1cc2c3c(ccc2c2ccc4cc5c(cc4c21)OCO5)OCO3  MyBP-C level change (human iPSC cardiomyocytes; plate-normalised; concentration not given, hit retest; baseline: vehicle controls, SDs below control): 14.7 SD
COc1cc(O)c2c(=O)c(O)c(-c3ccc(O)c(O)c3)oc2c1  kynurenine level (Caco-2/THP-1 co-culture; concentration not given, together with: LPS 250 ng/mL): 101 ± 2.8 % change
CCn1cc(-c2cc(Cn3ccnc3)cc3c2CCN([C@H](c2cc(OC)ccn2)C2CC2)C3=O)c(C(F)(F)F)n1  EC50 (NCI-H747; cell growth, inhibitor; 120 h): 23.3 µM
Cc1cc(Nc2ncc(Cl)c(Nc3ccccc3S(=O)(=O)C(C)C)n2)c(OC(C)C)cc1C1CCNCC1  log2 fold change (CLB-BAR; phosphoproteomics LC-MS/MS, item: ARHGAP39 phosphorylation; 200 nM, 60 min; baseline: untreated): -2.98
C[C@H](CS)C(=O)N1CCC[C@H]1C(=O)O  apoptotic cells (HUVEC; annexin V/PI flow cytometry; 10 µM, early and late apoptosis, together with: angiotensin II 1 µM): 7.47%
C[N+](C)(C)NCCC(=O)[O-]  inhibition (THP-1; pyroptotic LDH release; 2 µM, 40 min, together with: LPS then nigericin): 13.3%
COc1ccc(-n2nc(C(C)=O)s/c2=N\N=C(/C)c2ccc(NC(=O)c3ccc(C)cc3)cc2)cc1  viability (MCF7; 2.5 µM): 2.98%
O=C(O)CCc1ccc(O)c(O)c1  transepithelial electrical resistance (Caco-2/THP-1 co-culture; TEER; concentration not given, together with: LPS 200 ng/mL; baseline: control): 79.4 ± 4.6%
COC(=O)C1=C(C)NC(C)=C(C(=O)OCCCCNC[C@H](O)COc2ccccc2)C1c1cccc([N+](=O)[O-])c1 (stereo partly shown)  EC50 (HEK293T ATF4-FLuc reporter; ATF4 reporter gene, activator, luciferase reporter): 6.64 µM
COc1cc(/C=C/C(=O)N2CCC=CC2=O)cc(OC)c1OC  mRNA level (MDA-MB-468; quantitative RT-PCR, item: GPX7; 30 µM, 8 h; baseline: untreated cells): 63.9 ± 5.6%
C=CC1=C(C)c2cc3[n-]c(cc4nc(cc5[n-]c(cc1n2)c(C)c5C=C)C(C)=C4CCC(=O)O)c(CCC(=O)O)c3C.[Zn+2]  fold change (SH-SY5Y; RNA-seq, item: PTX3 mRNA; 5 µM, 5 h; baseline: untreated cells): 2.05
CC[C@@]1([C@@H]2O[C@@H]([C@H]3O[C@@](O)(CO)[C@H](C)C[C@@H]3C)C[C@@H]2C)CC[C@H]([C@]2(C)CC[C@]3(C[C@H](O)[C@@H](C)[C@@H]([C@@H](C)[C@@H](OC)[C@H](C)C(=O)O)O3)O2)O1  EC50 (human iPSC-derived cardiac fibroblasts, reporter lines; antifibrotic reporter effect; doses, lower, re-examined at): 0.065 µM
C=Cc1c2[n-]c(c1C)/C=c1\[n-]/c(c(C)c1C=C)=C\c1[n-]c(c(CCC(=O)O)c1C)/C=c1\[n-]c(c(C)c1CCC(=O)O)=C2.[Sn+4]  fold change (SH-SY5Y; RNA-seq, item: TGFB1I1 mRNA; 5 µM, 5 h; baseline: untreated cells): 1.92
CCn1nc(-c2ccccc2)cc(Nc2cccc3ncccc23)c1=O  EC50 (HEK293T ATF4-FLuc reporter; ATF4 reporter gene, activator, luciferase reporter): 5.81 µM
C=C1C[C@@]23CC[C@H]4[C@@](C)(CCC[C@@]4(C)C(=O)O[C@@H]4O[C@H](CO)[C@@H](O)[C@H](O)[C@H]4O)[C@@H]2CC[C@]1(O[C@@H]1O[C@H](CO)[C@@H](O)[C@H](O)[C@H]1O[C@@H]1O[C@H](CO)[C@@H](O)[C@H](O)[C@H]1O)C3  inhibition (THP-1; pyroptotic LDH release; 2 µM, 40 min, together with: LPS then nigericin): -27.8%
CN(C)CCCNC(=O)/C(=C/CCCCC(=O)NO)COc1cccc2ccccc12  EC50 (HEK293T ATF4-FLuc reporter; ATF4 reporter gene, activator, luciferase reporter): 0.584 µM
COc1ccc(NC(=S)N/N=C/c2cccc3cc4ccccc4nc23)cc1  G1 phase cells (HeLa; PI flow cytometry; IC12.5, 48 h): 58.1 ± 1.9%

Some of these lines once more:
O=C(O)/C=C/c1ccc(O)c(O)c1  kynurenine level (Caco-2/THP-1 co-culture; 0.05 µg/mL, together with: LPS 50 ng/mL): 118 ± 3.7 % change
CC[C@@]1([C@@H]2O[C@@H]([C@H]3O[C@@](O)(CO)[C@H](C)C[C@@H]3C)C[C@@H]2C)CC[C@H]([C@]2(C)CC[C@]3(C[C@H](O)[C@@H](C)[C@@H]([C@@H](C)[C@@H](OC)[C@H](C)C(=O)O)O3)O2)O1  EC50 (human iPSC-derived cardiac fibroblasts, reporter lines; antifibrotic reporter effect; doses, lower, re-examined at): 0.065 µM
CO/N=C1\C[C@]2(C[C@@H]3C[C@@H](C/C=C(\C)C[C@@H](C)/C=C/C=C4\CO[C@@H]5[C@H](O)C(C)=C[C@@H](C(=O)O3)[C@]45O)O2)O[C@H](/C(C)=C/C(C)C)[C@H]1C  inhibition (THP-1; pyroptotic LDH release; 2 µM, 40 min, together with: LPS then nigericin): 9.85%
C[C@H](CS)C(=O)N1CCC[C@H]1C(=O)O  apoptotic cells (HUVEC; annexin V/PI flow cytometry; 10 µM, early and late apoptosis, together with: angiotensin II 1 µM): 7.47%
O=C(/C=C/C=C/C=C/C1CCCCC1)NC1=C[C@@](O)(/C=C/C=C/C=C/C(=O)NC2=C(O)CCC2=O)[C@@H]2O[C@@H]2C1=O  GI50 (HCC38; cell growth, CellTiter-Glo; 78 h): 16.8 µM
CCOc1ccc(Cc2nccc3cc(OCC)c(OCC)cc23)cc1OCC  EC50 (HEK293T ATF4-FLuc reporter; ATF4 reporter gene, activator, luciferase reporter): 4.75 µM
COc1cc(-c2oc3cc(O)cc(O)c3c(=O)c2O)ccc1O  kynurenine level (Caco-2/THP-1 co-culture; concentration not given, together with: LPS 50 ng/mL): 113 ± 2.3 % change
